# Measurements pooled from the literature.
# Each line is one published result; not all experiments were run side by side. ± marks the error that the study gave.
Compound,assay,test system,setting,scale,endpoint,value
Cc1ccc2nc(C)c(C(=O)NCc3ccc(C(F)(F)F)cc3)n2c1,,mouse liver microsomes,,,intrinsic clearance,92 ml/min/g protein
COc1ccc(CCNc2cc(-c3ccccc3)nc3ncnn23)cc1,CLND,phosphate-buffered saline,"1 (unit not given), pH 7.4",,kinetic solubility,14 µM
CCCCCc1cc(O)c2c(c1)OC(C)(C)[C@@H]1CCC(C)=C[C@@H]21,LC-MS/MS,"male BALB/c mouse, plasma","intraperitoneal, 10 mg/kg, 1 h, together with: cis-PET 50 mg/kg and trans-PET 40 mg/kg",,plasma concentration,470 nM
NCc1ccc2[nH]c3c(c2c1)CC1(O)C2Cc4ccc(O)c5c4C1(CCN2CC1CC1)C3O5 (stereo not shown),Irwin observation,naive mice,"intraperitoneal, 10 mg/kg",,recovery time,1 h
N[C@]1(c2ccccc2Cl)CCC[C@H](O)C1=O,,Wistar rat,"20 mg/kg, together with: intravenous 20 mg/kg",baseline: intravenous dose,oral bioavailability,46.3%
CN[C@@H]1[C@H](O)[C@H](NC)[C@H]2O[C@]3(O)[C@H](O[C@@H]2[C@H]1O)O[C@H](C)C[C@H]3NC(=O)Cc1ccccn1,,rat plasma,,,fraction unbound,0.714
Cc1cccc(-c2nc(Nc3ccncn3)c3c(C)csc3n2)n1,,mouse liver microsomes,,,intrinsic clearance,20.8 mL/min/g
COc1ccc(-n2cc(C(=O)N3C[C@]4(OC(=O)c5ccccc5NC(C)=O)CC[C@H](OC)[C@@]56[C@@H]4C[C@@H]([C@@H]35)[C@@]3(O)C[C@H](OC)[C@H]4C[C@@H]6[C@]3(O)[C@H]4OC)nn2)cc1,,"Sprague-Dawley rat, plasma","intravenous, 2 mg/kg",,elimination rate constant,0.000639 ± 0.000378 s⁻¹
CN[C@@H]1[C@H](O)[C@H](NC)[C@H]2O[C@]3(O)[C@H](O[C@@H]2[C@H]1O)O[C@H](C)C[C@H]3NC(=O)Cc1cc(Cl)ccn1,,rat plasma,,,fraction unbound,0.85
O=C(NC12CC3CC(CC(C3)C1)C2)c1cc2cc(Cl)ccc2[nH]1,CLND,phosphate-buffered saline,"1 (unit not given), pH 7.4",,kinetic solubility,< 1 µM

# Some of these lines once more:
Compound,assay,test system,setting,scale,endpoint,value
CN[C@@H]1[C@H](O)[C@H](NC)[C@H]2O[C@]3(O)[C@H](O[C@@H]2[C@H]1O)O[C@H](C)C[C@H]3NC(=O)Cc1cc(Cl)ccn1,,rat plasma,,,fraction unbound,0.85
